Measurements of several laboratories.
Each numbered part is a random draw from the data of one study; scales do not carry over between parts.
UniProt Q00535, sequence (whole entry, looked up): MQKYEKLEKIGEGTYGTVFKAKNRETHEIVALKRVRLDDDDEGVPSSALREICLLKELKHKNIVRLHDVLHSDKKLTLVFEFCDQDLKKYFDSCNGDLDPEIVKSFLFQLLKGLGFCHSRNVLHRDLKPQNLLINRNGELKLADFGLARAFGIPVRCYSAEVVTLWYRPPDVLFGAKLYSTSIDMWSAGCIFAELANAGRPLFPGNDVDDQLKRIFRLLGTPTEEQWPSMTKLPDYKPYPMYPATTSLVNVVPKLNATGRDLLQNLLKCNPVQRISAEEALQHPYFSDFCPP
UniProt P49674, sequence (whole entry, looked up): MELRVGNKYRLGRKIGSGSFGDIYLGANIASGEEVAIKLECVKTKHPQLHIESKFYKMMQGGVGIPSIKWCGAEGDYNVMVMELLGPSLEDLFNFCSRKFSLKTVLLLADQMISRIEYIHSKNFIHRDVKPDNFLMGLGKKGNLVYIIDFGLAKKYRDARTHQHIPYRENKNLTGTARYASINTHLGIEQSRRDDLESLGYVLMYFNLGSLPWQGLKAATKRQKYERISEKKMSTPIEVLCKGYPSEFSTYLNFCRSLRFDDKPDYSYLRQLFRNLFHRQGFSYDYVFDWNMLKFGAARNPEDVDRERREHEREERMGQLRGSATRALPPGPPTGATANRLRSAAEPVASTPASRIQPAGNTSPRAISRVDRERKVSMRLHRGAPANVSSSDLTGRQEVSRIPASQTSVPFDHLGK
UniProt Q9UF33, sequence (whole entry, looked up): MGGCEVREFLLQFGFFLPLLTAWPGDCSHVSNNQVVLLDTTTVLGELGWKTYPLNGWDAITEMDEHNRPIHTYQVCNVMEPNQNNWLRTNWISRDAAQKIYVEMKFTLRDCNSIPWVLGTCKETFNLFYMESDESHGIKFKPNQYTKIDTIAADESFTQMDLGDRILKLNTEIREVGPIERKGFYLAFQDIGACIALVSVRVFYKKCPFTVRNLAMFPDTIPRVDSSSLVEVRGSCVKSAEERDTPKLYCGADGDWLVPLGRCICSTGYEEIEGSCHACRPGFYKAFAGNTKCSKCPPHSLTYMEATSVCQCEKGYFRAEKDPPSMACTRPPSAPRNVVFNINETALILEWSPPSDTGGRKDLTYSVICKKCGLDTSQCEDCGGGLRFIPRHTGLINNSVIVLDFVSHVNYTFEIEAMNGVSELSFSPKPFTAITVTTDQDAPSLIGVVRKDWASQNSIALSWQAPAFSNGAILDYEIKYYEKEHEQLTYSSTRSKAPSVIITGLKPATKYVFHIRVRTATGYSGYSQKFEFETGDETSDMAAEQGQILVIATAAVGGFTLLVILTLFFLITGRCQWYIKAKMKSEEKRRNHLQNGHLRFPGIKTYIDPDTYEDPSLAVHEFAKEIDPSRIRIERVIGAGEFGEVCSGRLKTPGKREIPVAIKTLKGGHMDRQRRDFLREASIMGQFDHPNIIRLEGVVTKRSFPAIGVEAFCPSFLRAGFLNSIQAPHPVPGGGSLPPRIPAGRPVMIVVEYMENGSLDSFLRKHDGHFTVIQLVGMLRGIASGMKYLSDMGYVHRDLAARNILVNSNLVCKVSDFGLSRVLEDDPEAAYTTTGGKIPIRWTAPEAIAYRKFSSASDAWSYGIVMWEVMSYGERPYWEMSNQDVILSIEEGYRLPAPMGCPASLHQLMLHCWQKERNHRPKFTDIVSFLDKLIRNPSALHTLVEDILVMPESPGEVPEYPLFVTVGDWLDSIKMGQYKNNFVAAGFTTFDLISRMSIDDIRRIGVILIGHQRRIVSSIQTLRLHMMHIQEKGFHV
UniProt P50750, sequence (whole entry, looked up): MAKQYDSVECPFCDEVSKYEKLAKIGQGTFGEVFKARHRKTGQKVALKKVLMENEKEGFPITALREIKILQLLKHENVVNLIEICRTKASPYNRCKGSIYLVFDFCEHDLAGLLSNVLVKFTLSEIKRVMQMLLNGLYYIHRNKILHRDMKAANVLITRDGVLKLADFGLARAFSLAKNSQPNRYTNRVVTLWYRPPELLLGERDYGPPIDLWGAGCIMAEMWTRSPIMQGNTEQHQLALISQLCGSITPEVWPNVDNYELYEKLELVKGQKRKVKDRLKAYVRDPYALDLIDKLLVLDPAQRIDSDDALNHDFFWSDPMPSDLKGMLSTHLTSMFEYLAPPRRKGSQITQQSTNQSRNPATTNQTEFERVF
UniProt P29317, sequence (whole entry, looked up): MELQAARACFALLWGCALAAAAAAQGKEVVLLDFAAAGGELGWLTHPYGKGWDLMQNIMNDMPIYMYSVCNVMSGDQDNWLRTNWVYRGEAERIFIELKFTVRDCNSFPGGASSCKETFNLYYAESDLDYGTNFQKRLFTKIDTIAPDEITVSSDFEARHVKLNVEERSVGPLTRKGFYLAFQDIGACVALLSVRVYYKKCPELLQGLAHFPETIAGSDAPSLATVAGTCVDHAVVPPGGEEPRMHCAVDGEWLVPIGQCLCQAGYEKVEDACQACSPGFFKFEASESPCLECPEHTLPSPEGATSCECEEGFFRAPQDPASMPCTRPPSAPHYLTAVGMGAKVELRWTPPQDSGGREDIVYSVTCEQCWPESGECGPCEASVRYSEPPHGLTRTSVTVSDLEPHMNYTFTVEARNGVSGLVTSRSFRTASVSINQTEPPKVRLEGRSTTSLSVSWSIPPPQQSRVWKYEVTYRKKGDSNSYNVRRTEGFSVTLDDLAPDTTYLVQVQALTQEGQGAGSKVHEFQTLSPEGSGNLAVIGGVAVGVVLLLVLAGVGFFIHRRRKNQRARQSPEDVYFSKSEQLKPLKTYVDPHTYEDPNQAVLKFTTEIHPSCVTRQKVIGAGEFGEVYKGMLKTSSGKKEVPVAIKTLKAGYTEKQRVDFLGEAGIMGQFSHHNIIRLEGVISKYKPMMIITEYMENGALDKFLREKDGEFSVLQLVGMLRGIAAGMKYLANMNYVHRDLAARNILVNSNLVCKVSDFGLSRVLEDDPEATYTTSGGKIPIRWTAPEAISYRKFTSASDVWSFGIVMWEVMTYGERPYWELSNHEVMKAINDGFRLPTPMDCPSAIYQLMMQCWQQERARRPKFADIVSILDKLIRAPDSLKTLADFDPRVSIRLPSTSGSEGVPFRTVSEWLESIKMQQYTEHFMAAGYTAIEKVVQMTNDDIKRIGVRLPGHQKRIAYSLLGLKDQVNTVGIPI
UniProt Q9HBY8, sequence (whole entry, looked up): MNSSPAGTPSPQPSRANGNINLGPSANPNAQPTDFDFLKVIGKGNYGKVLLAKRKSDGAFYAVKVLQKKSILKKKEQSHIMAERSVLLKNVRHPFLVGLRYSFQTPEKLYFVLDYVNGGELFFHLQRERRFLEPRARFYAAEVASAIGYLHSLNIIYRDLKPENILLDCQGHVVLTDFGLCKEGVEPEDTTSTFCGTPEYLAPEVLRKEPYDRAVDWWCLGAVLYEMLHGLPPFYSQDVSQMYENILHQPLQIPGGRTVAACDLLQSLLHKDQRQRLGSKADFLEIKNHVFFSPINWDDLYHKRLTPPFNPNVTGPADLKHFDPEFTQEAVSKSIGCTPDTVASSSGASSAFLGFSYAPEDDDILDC
UniProt Q05513, sequence (whole entry, looked up): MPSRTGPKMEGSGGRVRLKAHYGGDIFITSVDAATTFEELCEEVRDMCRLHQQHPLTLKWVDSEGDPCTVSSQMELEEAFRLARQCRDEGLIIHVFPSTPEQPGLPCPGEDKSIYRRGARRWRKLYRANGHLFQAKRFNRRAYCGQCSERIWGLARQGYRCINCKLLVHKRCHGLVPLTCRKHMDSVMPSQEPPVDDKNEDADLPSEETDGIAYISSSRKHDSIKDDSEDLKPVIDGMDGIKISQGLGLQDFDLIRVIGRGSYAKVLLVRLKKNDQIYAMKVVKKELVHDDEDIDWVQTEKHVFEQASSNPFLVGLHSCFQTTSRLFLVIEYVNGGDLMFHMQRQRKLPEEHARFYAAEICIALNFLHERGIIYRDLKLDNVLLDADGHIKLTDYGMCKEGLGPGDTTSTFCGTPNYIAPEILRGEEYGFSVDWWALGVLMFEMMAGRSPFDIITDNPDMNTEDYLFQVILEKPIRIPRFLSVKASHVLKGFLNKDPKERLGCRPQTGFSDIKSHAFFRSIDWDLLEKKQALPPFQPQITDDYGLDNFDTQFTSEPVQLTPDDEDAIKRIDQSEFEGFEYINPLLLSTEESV
UniProt P78368, sequence (whole entry, looked up): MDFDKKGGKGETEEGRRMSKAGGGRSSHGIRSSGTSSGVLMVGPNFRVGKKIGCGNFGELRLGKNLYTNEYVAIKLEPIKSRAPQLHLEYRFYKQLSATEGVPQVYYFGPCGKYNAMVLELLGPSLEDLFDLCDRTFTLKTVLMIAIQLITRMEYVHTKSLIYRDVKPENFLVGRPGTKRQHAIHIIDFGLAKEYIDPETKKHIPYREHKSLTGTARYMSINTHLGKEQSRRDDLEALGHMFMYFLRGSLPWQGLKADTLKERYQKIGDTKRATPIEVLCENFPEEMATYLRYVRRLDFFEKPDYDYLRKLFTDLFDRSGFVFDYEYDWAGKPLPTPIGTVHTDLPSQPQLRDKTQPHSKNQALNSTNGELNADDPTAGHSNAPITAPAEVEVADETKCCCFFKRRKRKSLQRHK
UniProt P50613, sequence (whole entry, looked up): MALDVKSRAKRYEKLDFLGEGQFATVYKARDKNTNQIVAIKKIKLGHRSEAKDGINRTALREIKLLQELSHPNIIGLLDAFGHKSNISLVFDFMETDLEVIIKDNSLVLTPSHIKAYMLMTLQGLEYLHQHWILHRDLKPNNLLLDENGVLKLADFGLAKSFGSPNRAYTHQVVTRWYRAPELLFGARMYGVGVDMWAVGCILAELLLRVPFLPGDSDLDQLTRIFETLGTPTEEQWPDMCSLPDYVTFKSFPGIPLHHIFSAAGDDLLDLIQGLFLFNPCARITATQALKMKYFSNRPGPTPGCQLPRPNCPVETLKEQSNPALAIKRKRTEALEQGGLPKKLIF

Sample 1
SMILES: N#C/C(=C(/N)SC1C=CC=CC1)c1cccc(C(O)c2ccncc2)c1 (stereo not shown)
Effect on: enzyme activity
Mode: inhibitor
Concentration: 0.5 µM
Reference: control
Measurement: remaining activity
CSNK1E (Homo sapiens, UniProt P49674): 98.3%
FLT1 (Homo sapiens, UniProt P17948): 87.5%
PRKCZ (Homo sapiens, UniProt Q05513): 102%
SGK2 (Homo sapiens, UniProt Q9HBY8): 99.9%
IGF1R (Homo sapiens, UniProt P08069): 105%
CAMK1 (Homo sapiens, UniProt Q14012): 100%
Cyclin-dependent kinase 2, with cyclin E (CDK2, Homo sapiens, UniProt P24941): 80.6%
CLK2 (Homo sapiens, UniProt P49760): 97.4%
EPHA2 (Homo sapiens, UniProt P29317): 101%
CAMKK1 (Homo sapiens, UniProt Q8N5S9): 103%
EPHA6 (Homo sapiens, UniProt Q9UF33): 103%
CSNK1D (Homo sapiens, UniProt P48730): 101%
JAK1 (Homo sapiens, UniProt P23458): 107%
CLK1 (Homo sapiens, UniProt P49759): 109%
PAK6 (Homo sapiens, UniProt Q9NQU5): 101%
PRKCQ (Homo sapiens, UniProt Q04759): 103%
RPS6KA3 (Homo sapiens, UniProt P51812): 104%
TEC (Homo sapiens, UniProt P42680): 101%
MAP3K20 (Homo sapiens, UniProt Q9NYL2): 97.1%
TYRO3 (Homo sapiens, UniProt Q06418): 107%

Sample 2
Organism: Sarcocystis neurona
Effect on: parasite growth
Concentration: 10 µM
Time: 96 h
Notes: second screen
Reference: untreated
Measurement: log2 fold change
CCCc1c(OCCCCc2nnn[nH]2)ccc(C(C)=O)c1O: 0.27
O=C1NC(=O)C(c2ccccc2)(c2ccccc2)N1: 0.08
CC(=O)NCCCCCCNC(C)=O: 0.25
COC(=O)CCc1ccc(OCC(O)CNC(C)C)cc1 (stereo not shown): 0.34
CC[C@H]1OC(=O)[C@H](C)[C@@H](O[C@H]2C[C@@](C)(OC)[C@@H](O)[C@H](C)O2)[C@H](C)[C@@H](O[C@@H]2O[C@H](C)C[C@H](N(C)C)[C@H]2O)[C@](C)(OC)C[C@@H](C)C(=O)[C@H](C)[C@@H](O)[C@]1(C)O: 0.03
CN(C)c1ccc(O)c2c1C[C@H]1C[C@H]3[C@H](N(C)C)C(O)=C(C(N)=O)C(=O)[C@@]3(O)C(O)=C1C2=O: -0.21
O=C1c2c(O)cc(O)cc2OC(c2ccc(O)c(O)c2)C1O (stereo not shown): 0.11
CC(COc1ccccc1)NC(C)C(O)c1ccc(O)cc1 (stereo not shown): 0.28
NC(=O)N1c2ccccc2C=Cc2ccccc21: 0.48

Sample 3
Species: mouse
Sample: microsomes or S9
Concentration: 2 µM
Time: 0.5 h
Measurement: remaining compound
CCOC(=O)c1[nH]c(=O)n(CCS(C)(=O)=O)c1C: 75%
CCOC(=O)c1c(=O)n(-c2ccccc2)nc2cc(C(C)=O)ccc12: 63.8%
COc1ccc(C(=O)N2CCC(Cc3noc(C4CCOCC4)n3)C2)cc1F (stereo not shown): 53.1%
O=C(Nc1nn[nH]n1)c1cc(-c2cccs2)[nH]n1: 92.2%
CN(C)c1ccc2c(c1)[C@H](CC(=O)c1ccccc1)C(C(=O)OCc1ccccc1)(C(=O)OCc1ccccc1)C[C@H]2c1ccccc1: 54.1%
CCCC(=O)Nc1nc2ncc(Br)nc2s1: < 1%

Sample 4
SMILES: O=C(Nc1cnc(Oc2ccc(F)cc2)nc1)N1CCc2ncccc2[C@@H]1c1ccc(F)cc1
Concentration: 1 µM
Measurement: remaining binding
MAP4K1 (Homo sapiens, UniProt Q92918); cell-free assay, competition with immobilised ligand: 100%
PRPF4B (Homo sapiens, UniProt Q13523); cell-free assay, competition with immobilised ligand: 90%
Tyrosine-protein kinase ABL1, phosphorylated (ABL1, Homo sapiens, UniProt P00519, F317I); binding: 100%
EPHB6 (Homo sapiens, UniProt O15197); cell-free assay, competition with immobilised ligand: 100%
PAK5 (Homo sapiens, UniProt Q9P286); cell-free assay, competition with immobilised ligand: 95%
RET (Homo sapiens, UniProt P07949, V804M); cell-free assay, competition with immobilised ligand: 94%
PRKACB (Homo sapiens, UniProt P22694); cell-free assay, competition with immobilised ligand: 85%
CSNK1G2 (Homo sapiens, UniProt P78368); cell-free assay, competition with immobilised ligand: 96%
CDK9 (Homo sapiens, UniProt P50750); cell-free assay, competition with immobilised ligand: 93%
CDK7 (Homo sapiens, UniProt P50613); cell-free assay, competition with immobilised ligand: 100%
BMPR1A (Homo sapiens, UniProt P36894); binding, competition with immobilised ligand: 100%
SYK (Homo sapiens, UniProt P43405); cell-free assay, competition with immobilised ligand: 84%
GRK2 (Homo sapiens, UniProt P25098); cell-free assay, competition with immobilised ligand: 90%
EPHB3 (Homo sapiens, UniProt P54753); cell-free assay, competition with immobilised ligand: 100%
PIK3CA (Homo sapiens, UniProt P42336, E545A); cell-free assay, competition with immobilised ligand: 98%
CDK5 (Homo sapiens, UniProt Q00535); cell-free assay, competition with immobilised ligand: 100%
Ribosomal protein S6 kinase alpha-5, C-terminal kinase domain (RPS6KA5, Homo sapiens, UniProt O75582); cell-free assay, competition with immobilised ligand: 74%

Some of these lines once more (sample 2):
CN(C)c1ccc(O)c2c1C[C@H]1C[C@H]3[C@H](N(C)C)C(O)=C(C(N)=O)C(=O)[C@@]3(O)C(O)=C1C2=O: -0.21
CCCc1c(OCCCCc2nnn[nH]2)ccc(C(C)=O)c1O: 0.27
CC(COc1ccccc1)NC(C)C(O)c1ccc(O)cc1 (stereo not shown): 0.28
COC(=O)CCc1ccc(OCC(O)CNC(C)C)cc1 (stereo not shown): 0.34
CC[C@H]1OC(=O)[C@H](C)[C@@H](O[C@H]2C[C@@](C)(OC)[C@@H](O)[C@H](C)O2)[C@H](C)[C@@H](O[C@@H]2O[C@H](C)C[C@H](N(C)C)[C@H]2O)[C@](C)(OC)C[C@@H](C)C(=O)[C@H](C)[C@@H](O)[C@]1(C)O: 0.03
O=C1c2c(O)cc(O)cc2OC(c2ccc(O)c(O)c2)C1O (stereo not shown): 0.11
